Results pooled from the literature.
± marks the error that the study gave.
ache: Acetylcholinesterase (ache, Electrophorus electricus, UniProt O42275)
UniProt O42275, sequence (whole entry, looked up): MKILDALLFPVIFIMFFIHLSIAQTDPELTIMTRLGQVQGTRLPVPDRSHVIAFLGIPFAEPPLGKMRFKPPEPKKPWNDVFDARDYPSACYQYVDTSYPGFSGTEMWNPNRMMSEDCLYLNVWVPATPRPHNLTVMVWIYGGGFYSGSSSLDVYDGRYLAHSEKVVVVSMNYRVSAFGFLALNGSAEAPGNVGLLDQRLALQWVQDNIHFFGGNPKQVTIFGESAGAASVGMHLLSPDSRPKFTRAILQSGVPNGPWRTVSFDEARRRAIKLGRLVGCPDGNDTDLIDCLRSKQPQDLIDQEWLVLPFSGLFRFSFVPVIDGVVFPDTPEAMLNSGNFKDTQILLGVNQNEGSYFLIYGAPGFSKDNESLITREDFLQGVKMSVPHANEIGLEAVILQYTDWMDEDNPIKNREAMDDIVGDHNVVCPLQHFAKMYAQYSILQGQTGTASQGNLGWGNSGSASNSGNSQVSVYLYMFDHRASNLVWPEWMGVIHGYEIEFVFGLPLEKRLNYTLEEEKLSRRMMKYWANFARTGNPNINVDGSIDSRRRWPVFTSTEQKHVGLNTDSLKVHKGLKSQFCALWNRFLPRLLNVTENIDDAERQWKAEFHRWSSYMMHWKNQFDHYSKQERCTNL
Chymotrypsinogen A: Chymotrypsinogen A (Bos taurus, UniProt P00766)
SLC6A3: Sodium-dependent dopamine transporter (SLC6A3, Homo sapiens, UniProt Q01959)
UniProt Q01959, sequence (whole entry, looked up): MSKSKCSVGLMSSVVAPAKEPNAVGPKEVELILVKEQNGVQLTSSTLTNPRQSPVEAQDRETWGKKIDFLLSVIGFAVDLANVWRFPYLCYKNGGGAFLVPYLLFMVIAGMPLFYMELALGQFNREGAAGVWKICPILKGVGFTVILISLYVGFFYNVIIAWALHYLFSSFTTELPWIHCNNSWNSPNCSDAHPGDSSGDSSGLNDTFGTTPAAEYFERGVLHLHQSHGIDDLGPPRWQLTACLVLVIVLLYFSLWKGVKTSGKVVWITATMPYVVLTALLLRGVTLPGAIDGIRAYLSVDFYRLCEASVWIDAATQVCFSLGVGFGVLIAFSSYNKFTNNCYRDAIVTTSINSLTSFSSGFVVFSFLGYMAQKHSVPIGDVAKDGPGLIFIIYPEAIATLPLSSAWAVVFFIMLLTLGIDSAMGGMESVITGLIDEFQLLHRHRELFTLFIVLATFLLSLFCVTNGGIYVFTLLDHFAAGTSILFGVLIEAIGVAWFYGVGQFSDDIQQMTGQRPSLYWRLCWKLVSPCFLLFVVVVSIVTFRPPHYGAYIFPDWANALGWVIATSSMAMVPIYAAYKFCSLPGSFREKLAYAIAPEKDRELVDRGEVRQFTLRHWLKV
OPRK1: Kappa-type opioid receptor (OPRK1, Homo sapiens, UniProt P41145)
UniProt P41145, sequence (whole entry, looked up): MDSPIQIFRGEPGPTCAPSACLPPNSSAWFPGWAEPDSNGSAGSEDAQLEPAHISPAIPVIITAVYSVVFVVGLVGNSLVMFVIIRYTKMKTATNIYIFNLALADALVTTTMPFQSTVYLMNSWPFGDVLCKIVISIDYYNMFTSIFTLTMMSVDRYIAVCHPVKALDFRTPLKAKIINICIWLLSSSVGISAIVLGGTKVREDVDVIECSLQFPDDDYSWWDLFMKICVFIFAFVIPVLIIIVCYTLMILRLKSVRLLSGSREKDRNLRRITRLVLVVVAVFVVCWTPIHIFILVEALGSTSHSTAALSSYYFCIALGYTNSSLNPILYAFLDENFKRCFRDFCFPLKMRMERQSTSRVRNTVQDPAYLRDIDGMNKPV
HTR3A: 5-hydroxytryptamine receptor 3A (HTR3A, Homo sapiens, UniProt P46098)
UniProt P46098, sequence (whole entry, looked up): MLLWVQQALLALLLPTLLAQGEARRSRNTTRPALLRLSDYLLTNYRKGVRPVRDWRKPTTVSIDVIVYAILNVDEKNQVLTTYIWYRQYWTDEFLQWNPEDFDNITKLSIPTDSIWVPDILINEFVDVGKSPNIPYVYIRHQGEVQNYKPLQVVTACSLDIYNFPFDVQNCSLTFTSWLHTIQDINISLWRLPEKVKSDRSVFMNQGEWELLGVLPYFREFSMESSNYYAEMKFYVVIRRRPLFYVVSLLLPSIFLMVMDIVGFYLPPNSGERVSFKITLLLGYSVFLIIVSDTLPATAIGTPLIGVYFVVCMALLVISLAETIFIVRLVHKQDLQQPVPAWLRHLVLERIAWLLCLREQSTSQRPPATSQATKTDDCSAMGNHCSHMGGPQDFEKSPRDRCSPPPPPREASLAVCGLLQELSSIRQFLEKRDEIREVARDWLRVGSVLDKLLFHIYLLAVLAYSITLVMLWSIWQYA
CA9: Carbonic anhydrase 9 (CA9, Homo sapiens, UniProt Q16790)
UniProt P30542, sequence (whole entry, looked up): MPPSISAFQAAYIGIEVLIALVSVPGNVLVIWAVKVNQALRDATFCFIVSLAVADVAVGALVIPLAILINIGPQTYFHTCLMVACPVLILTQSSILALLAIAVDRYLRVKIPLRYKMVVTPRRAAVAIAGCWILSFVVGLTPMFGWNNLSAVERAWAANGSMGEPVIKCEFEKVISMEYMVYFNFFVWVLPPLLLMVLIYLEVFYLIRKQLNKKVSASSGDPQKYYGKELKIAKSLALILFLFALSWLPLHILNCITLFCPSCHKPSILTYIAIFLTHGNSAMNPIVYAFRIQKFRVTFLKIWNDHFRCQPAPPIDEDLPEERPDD
UniProt P34969, sequence (whole entry, looked up): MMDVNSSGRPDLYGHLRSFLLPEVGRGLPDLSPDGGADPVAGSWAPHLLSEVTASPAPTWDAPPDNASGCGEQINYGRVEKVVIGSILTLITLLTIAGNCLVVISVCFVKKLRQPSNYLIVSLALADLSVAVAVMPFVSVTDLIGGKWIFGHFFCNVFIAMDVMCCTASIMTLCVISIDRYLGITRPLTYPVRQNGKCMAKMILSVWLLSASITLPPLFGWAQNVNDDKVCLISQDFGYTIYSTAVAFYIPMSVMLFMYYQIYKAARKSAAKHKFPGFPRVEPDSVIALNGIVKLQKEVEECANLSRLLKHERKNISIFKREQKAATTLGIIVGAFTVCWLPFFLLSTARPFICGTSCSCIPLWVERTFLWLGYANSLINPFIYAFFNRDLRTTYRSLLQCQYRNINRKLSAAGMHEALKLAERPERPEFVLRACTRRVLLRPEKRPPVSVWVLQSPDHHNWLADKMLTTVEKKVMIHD
UniProt Q6DWJ6, sequence (whole entry, looked up): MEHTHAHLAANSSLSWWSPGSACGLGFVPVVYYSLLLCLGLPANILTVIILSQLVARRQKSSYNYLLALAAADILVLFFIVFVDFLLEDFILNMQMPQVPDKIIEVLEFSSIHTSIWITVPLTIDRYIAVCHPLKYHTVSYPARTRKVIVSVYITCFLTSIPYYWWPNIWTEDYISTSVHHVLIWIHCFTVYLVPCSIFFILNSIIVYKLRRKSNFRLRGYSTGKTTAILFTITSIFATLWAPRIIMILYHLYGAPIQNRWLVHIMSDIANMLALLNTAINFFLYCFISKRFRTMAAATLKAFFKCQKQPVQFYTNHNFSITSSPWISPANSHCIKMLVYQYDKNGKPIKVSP
UniProt Q99720, sequence (whole entry, looked up): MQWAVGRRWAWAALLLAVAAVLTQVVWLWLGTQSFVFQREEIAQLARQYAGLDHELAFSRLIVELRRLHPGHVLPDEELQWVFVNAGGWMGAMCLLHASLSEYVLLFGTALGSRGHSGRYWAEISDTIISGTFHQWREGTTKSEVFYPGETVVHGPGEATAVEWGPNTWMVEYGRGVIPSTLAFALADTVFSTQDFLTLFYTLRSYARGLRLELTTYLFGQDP
UniProt P42336, sequence (whole entry, looked up): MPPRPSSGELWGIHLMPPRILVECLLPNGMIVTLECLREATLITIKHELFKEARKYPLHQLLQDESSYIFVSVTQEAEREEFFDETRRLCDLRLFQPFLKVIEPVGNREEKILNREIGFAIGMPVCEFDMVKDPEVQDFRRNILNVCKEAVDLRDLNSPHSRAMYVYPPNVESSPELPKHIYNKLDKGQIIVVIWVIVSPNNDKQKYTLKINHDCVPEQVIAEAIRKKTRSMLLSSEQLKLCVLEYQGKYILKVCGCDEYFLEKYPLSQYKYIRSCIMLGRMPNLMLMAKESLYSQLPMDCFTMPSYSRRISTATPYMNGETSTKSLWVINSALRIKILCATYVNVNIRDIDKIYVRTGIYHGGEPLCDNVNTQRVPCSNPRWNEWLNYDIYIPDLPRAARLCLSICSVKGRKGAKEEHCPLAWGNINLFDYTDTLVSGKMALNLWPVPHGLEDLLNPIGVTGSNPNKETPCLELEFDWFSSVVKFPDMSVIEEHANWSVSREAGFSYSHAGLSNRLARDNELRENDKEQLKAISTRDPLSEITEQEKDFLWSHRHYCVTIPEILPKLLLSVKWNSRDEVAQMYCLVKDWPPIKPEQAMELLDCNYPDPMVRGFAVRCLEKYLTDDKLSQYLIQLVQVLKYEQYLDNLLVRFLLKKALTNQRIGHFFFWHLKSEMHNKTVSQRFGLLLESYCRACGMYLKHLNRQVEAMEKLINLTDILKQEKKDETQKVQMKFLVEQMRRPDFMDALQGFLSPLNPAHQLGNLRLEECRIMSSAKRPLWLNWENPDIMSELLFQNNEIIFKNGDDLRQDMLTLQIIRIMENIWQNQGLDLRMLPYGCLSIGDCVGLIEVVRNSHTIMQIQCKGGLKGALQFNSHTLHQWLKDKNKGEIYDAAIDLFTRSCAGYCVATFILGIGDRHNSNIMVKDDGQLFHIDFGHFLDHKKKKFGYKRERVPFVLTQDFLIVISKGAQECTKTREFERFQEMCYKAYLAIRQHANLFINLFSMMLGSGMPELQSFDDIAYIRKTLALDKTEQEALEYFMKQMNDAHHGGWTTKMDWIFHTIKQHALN
UniProt P30518, sequence (whole entry, looked up): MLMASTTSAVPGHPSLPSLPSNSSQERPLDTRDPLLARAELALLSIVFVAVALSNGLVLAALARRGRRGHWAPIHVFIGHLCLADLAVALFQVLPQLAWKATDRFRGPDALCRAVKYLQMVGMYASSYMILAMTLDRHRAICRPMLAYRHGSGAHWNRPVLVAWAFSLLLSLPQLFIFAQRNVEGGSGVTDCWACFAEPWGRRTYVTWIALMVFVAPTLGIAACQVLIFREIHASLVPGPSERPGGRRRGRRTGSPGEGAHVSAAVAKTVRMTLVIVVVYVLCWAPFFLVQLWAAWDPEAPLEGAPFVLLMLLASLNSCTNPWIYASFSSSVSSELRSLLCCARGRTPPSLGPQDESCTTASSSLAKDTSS

Structure (SMILES)	target	assay	test system	setting	Ki
O=S(=O)(N/N=C/c1ccc(OS(=O)(=O)c2ccc(Br)cc2)cc1)c1cc(Cl)ccc1Cl	ache	enzyme activity, inhibitor, Ellman	–	–	0.0313 µM
CC(C)[C@@H](Nc1nc(Cl)nc2c1ncn2[C@H]1[C@H](O)[C@H](O)[C@]2(CF)C[C@H]12)C1CC1	Adenosine receptor A1 (ADORA1, Homo sapiens, UniProt P30542)	ligand displacement, radioligand	–	–	0.00984 µM
CCN(N=Cc1cnc2ccc(Br)cn12)S(=O)(=O)c1cc([N+](=O)[O-])ccc1C	Phosphatidylinositol 4,5-bisphosphate 3-kinase catalytic subunit alpha isoform (PIK3CA, Homo sapiens, UniProt P42336)	enzyme activity, inhibitor	–	non-competitive model, added: ATP substrate	0.046 ± 0.005 µM
O=C(O)c1ccc(/N=N/c2cccc([B-](F)(F)F)c2)cc1	Chymotrypsinogen A	enzyme activity, competitive inhibitor	buffer with 2 vol% DMSO	pH 7.81, 25 °C, thermally adapted trans state, added: Suc-AAPF-AMC	78.7 µM
COC(=O)[C@H]1[C@@H](c2ccc(Cl)c(Cl)c2)C[C@@H]2CC[C@H]1N2CCCc1c2ccccc2cc2ccccc12	SLC6A3	ligand displacement, radioligand	–	pH 7.4	0.053 µM
Cc1ccccc1/N=N/c1cccc([B-](F)(F)F)c1	Chymotrypsinogen A	enzyme activity, inhibitor	–	pH 7.81, 25 °C, cis-enriched photostationary state, added: Suc-AAPF-AMC	63.6 µM
C[C@@H](Cc1ccsc1)NC(=O)NC[C@H](Cc1ccc(O)cc1)N(C)C	Beta-2 adrenergic receptor (ADRB2, Homo sapiens, UniProt P07550)	cell-free assay	–	–	> 50 µM
O=S(=O)(N/N=C/c1ccc(OS(=O)(=O)c2cc(Cl)ccc2Cl)cc1)c1ccc(Cl)cc1	ache	enzyme activity, inhibitor, Ellman	–	–	0.104 µM
CN(C)[C@H](CNC(=O)/C=C/c1cccc2ccccc12)Cc1ccc(O)cc1	OPRK1	cell-free assay	–	–	0.19 µM
COC(=O)[C@H]1[C@@H](c2ccc(Cl)cc2)C[C@@H]2CC[C@H]1N2CCCCCCCCCCCc1c2ccccc2cc2ccccc12	SLC6A3	ligand displacement, radioligand	–	pH 7.4	0.051 µM
Cc1ccc(/N=N/c2ccc(C)c([B-](F)(F)F)c2)cc1	Chymotrypsinogen A	enzyme activity, inhibitor	–	pH 7.81, 25 °C, cis-enriched photostationary state, added: Suc-AAPF-AMC	> 2000 µM
O=C(Cc1ccc(Cl)c(Cl)c1)N1CCN[C@@H]2COC[C@H](N3CCCC3)[C@H]21	Mu-type opioid receptor (OPRM1, Homo sapiens, UniProt P35372)	binding, radioligand displacement	CHO cell membranes	added: [3H]DAMGO	> 10 µM
COC(=O)[C@H]1[C@@H](c2ccc(Cl)cc2)C[C@@H]2CC[C@H]1N2Cc1ccc2cc3ccccc3cc2c1	SLC6A3	ligand displacement, radioligand	–	pH 7.4	0.0097 µM
CCCCCn1ccc(C(=O)NC(C)(C)c2ccc(CNC(C)=O)cc2)n1	Cannabinoid receptor 2 (CNR2, Homo sapiens, UniProt P34972)	ligand displacement, radioligand	–	–	1.63 µM
CCCCCn1c2ccccc2c2cc(C(=O)N3CCN(C(=O)OC(C)(C)C)CC3)ccc21	Cannabinoid receptor 1 (Cnr1, Rattus norvegicus, UniProt P20272)	ligand displacement, radioligand	–	–	> 5 µM
CCCNC(=O)[C@H]1O[C@@H]1C(=O)N[C@H](C(=O)N1CCC[C@H]1C(=O)OCC1=C2C(C)=CC(C)=[N+]2[B-](F)(F)n2c(C)cc(C)c21)[C@@H](C)CC	Cathepsin B (CTSB, Homo sapiens, UniProt P07858)	irreversible inactivation, inhibitor	–	concentration not given, pH 5.5, 25 °C, in dark, added: Z-Arg-Arg-AMC	94 ± 30 µM
CC(C)[C@@H]1NC(=O)[C@H](Cc2ccccc2)NC(=O)[C@H](Cc2ccc(O)cc2)NC(=O)CCSSC[C@@H](C(=O)N2CCC[C@H]2C(=O)N[C@H](CCCNC(=N)N)C(=O)NCC(N)=O)NC(=O)[C@H](CC(N)=O)NC(=O)[C@H](C(C)C)NC(=O)[C@H](Cc2ccccc2)NC(=O)[C@H](Cc2ccc(O)cc2)NC(=O)CCSSC[C@@H](C(=O)N2CCC[C@H]2C(=O)N[C@H](CCCNC(=N)N)C(=O)NCC(N)=O)NC(=O)[C@H](CC(N)=O)NC1=O	Vasopressin V2 receptor (AVPR2, Homo sapiens, UniProt P30518)	ligand displacement, radioligand	–	cell membranes	0.0086 µM

Structure (SMILES)	target	assay	test system	setting	Ki
CC(C)(C)c1ccc(/N=N/c2cccc([B-](F)(F)F)c2)cc1	Chymotrypsinogen A	enzyme activity, inhibitor	–	pH 7.81, 25 °C, cis-enriched photostationary state, added: Suc-AAPF-AMC	> 2000 µM
COc1cc2c(cc1O)C(CCc1ccc(Cl)cc1)N(C)CC2 (stereo not shown)	HTR3A	cell-free assay, radioligand	–	–	1.1 µM
COc1ccccc1COc1ccc2c(c1)[C@H]1CCN[C@@]1(C)CO2	Sigma non-opioid intracellular receptor 1 (SIGMAR1, Homo sapiens, UniProt Q99720)	cell-free assay, radioligand	–	–	0.0042 µM
C[C@@H](NC(=O)[C@@H](N)Cc1ccc(O)cc1)C(=O)NCC(=O)N[C@@H](Cc1ccccc1)C(=O)N[C@H](CCCNC(=N)N)C(=O)N[C@@H](CCCNC(=N)N)C(=O)N1CCC[C@H]1C(=O)N1C[C@H](O)C[C@H]1C(=O)NCC(=O)N[C@@H](Cc1cccs1)C(=O)N[C@@H](CO)C(=O)N1Cc2ccccc2C[C@@H]1C(=O)N1[C@H](C(=O)N[C@@H](CCCNC(=N)N)C(=O)O)C[C@@H]2CCCC[C@@H]21	bradykinin B2 receptor (rat)	–	rat brain membranes	added: [3H]bradykinin	> 10 µM
CC[C@H](C)[C@H](NC(=O)[C@H](CCCNC(=N)N)NC(=O)[C@H](CCCNC(=N)N)NC(=O)[C@H](CC(C)C)NC(=O)[C@H](Cc1ccccc1)NC(=O)CNC(=O)CNC(=O)[C@@H](N)Cc1ccc(O)cc1)C(=O)N[C@@H](CCCNC(=N)N)C(=O)N1CCC[C@H]1C(=O)N[C@@H](CCCCN)C(=O)N[C@@H](CC(C)C)C(=O)N[C@@H](CCCCN)C(=O)N[C@@H](Cc1c[nH]c2ccccc12)C(=O)N[C@@H](CC(=O)O)C(=O)N[C@@H](CC(N)=O)C(=O)N[C@@H](CCC(N)=O)C(=O)O	Probable G-protein coupled receptor 139 (GPR139, Homo sapiens, UniProt Q6DWJ6)	ligand displacement, radioligand	–	cell membranes	0.0177 µM
O=C(Cc1ccc(F)c(Cl)c1)N1CCN[C@@H]2COC[C@H](N3CCCC3)[C@H]21 (relative stereo)	OPRK1	cell-free assay	–	–	0.18 µM
O=C1c2ccccc2CCCN1CCCCN1CCN(c2cccc(Cl)c2Cl)CC1	HTR3A	ligand displacement, radioligand	–	–	0.677 µM
CC(=O)c1ccc(/N=N/c2cccc([B-](F)(F)F)c2)cc1	Chymotrypsinogen A	enzyme activity, competitive inhibitor	buffer with 2 vol% DMSO	pH 7.81, 25 °C, thermally adapted trans state, added: Suc-AAPF-AMC	122 µM
O=S(=O)(N/N=C/c1ccc(OS(=O)(=O)c2ccc(Cl)cc2)cc1)c1cc(Cl)ccc1Cl	ache	enzyme activity, inhibitor, Ellman	–	–	0.0317 µM
CC(=O)NCCCC[C@H](NC(=O)[C@H](CCCNC(=N)NCCC[C@H]1O[C@@H](n2cnc3c(N)ncnc32)[C@H](O)[C@@H]1O)NC(=O)[C@@H]1CCCN1C(C)=O)C(=O)N[C@@H](CCC(N)=O)C(N)=O (relative stereo)	Histone-arginine methyltransferase CARM1 (CARM1, Homo sapiens, UniProt Q86X55)	enzyme activity, inhibitor	–	–	0.32 µM
COc1ccccc1/N=N/c1cccc([B-](F)(F)F)c1	Chymotrypsinogen A	enzyme activity, inhibitor	–	pH 7.81, 25 °C, cis-enriched photostationary state, added: Suc-AAPF-AMC	114 µM
N[C@H]1CCOC1=O	CA9	CO2 hydration activity, inhibitor, stopped-flow CO2 hydration	–	room temperature preincubation	> 100 µM
Cc1cc(=O)oc2cc(OCCCCCC[Se]C#N)ccc12	CA9	enzyme activity, inhibitor, stopped-flow	–	–	0.0458 µM
CC(C)c1ccccc1/N=N/c1cccc([B-](F)(F)F)c1	Chymotrypsinogen A	enzyme activity, inhibitor	–	pH 7.81, 25 °C, cis-enriched photostationary state, added: Suc-AAPF-AMC	74.1 µM
COc1ccc2c(c1)c(CCN(C)C)cn2Cc1ccccc1	5-hydroxytryptamine receptor 7, isoform 5-HT7b (HTR7, Homo sapiens, UniProt P34969)	binding, radioligand displacement	HEK293 membranes	1 h, 37 °C, 5-HT7b isoform, added: 0.6 nM [3H]-5-CT	0.937 ± 0.072 µM
Fc1cccc(F)c1/N=N/c1cccc([B-](F)(F)F)c1	Chymotrypsinogen A	enzyme activity, competitive inhibitor	buffer with 2 vol% DMSO	pH 7.81, 25 °C, thermally adapted trans state, added: Suc-AAPF-AMC	32 µM
Cc1cc(O)cc(C)c1C[C@H](N)C(=O)N[C@H](CCCNC(=N)N)C(=O)N[C@@H](Cc1ccccc1)C(=O)N(C)CC(=O)N(C)Cc1cc(C(F)(F)F)cc(C(F)(F)F)c1	Delta-type opioid receptor (OPRD1, Homo sapiens, UniProt P41143, Y129F)	–	–	–	0.0348 µM

A few entries again:
Structure (SMILES)	target	assay	test system	setting	Ki
COc1ccccc1COc1ccc2c(c1)[C@H]1CCN[C@@]1(C)CO2	Sigma non-opioid intracellular receptor 1 (SIGMAR1, Homo sapiens, UniProt Q99720)	cell-free assay, radioligand	–	–	0.0042 µM
C[C@@H](NC(=O)[C@@H](N)Cc1ccc(O)cc1)C(=O)NCC(=O)N[C@@H](Cc1ccccc1)C(=O)N[C@H](CCCNC(=N)N)C(=O)N[C@@H](CCCNC(=N)N)C(=O)N1CCC[C@H]1C(=O)N1C[C@H](O)C[C@H]1C(=O)NCC(=O)N[C@@H](Cc1cccs1)C(=O)N[C@@H](CO)C(=O)N1Cc2ccccc2C[C@@H]1C(=O)N1[C@H](C(=O)N[C@@H](CCCNC(=N)N)C(=O)O)C[C@@H]2CCCC[C@@H]21	bradykinin B2 receptor (rat)	–	rat brain membranes	added: [3H]bradykinin	> 10 µM
CC[C@H](C)[C@H](NC(=O)[C@H](CCCNC(=N)N)NC(=O)[C@H](CCCNC(=N)N)NC(=O)[C@H](CC(C)C)NC(=O)[C@H](Cc1ccccc1)NC(=O)CNC(=O)CNC(=O)[C@@H](N)Cc1ccc(O)cc1)C(=O)N[C@@H](CCCNC(=N)N)C(=O)N1CCC[C@H]1C(=O)N[C@@H](CCCCN)C(=O)N[C@@H](CC(C)C)C(=O)N[C@@H](CCCCN)C(=O)N[C@@H](Cc1c[nH]c2ccccc12)C(=O)N[C@@H](CC(=O)O)C(=O)N[C@@H](CC(N)=O)C(=O)N[C@@H](CCC(N)=O)C(=O)O	Probable G-protein coupled receptor 139 (GPR139, Homo sapiens, UniProt Q6DWJ6)	ligand displacement, radioligand	–	cell membranes	0.0177 µM
O=C(Cc1ccc(F)c(Cl)c1)N1CCN[C@@H]2COC[C@H](N3CCCC3)[C@H]21 (relative stereo)	OPRK1	cell-free assay	–	–	0.18 µM
